Results gathered from unrelated publications.
A part holds a random share of what one study measured. Positions count from the first letter of the parent shown.

Series 1
Target: RING finger protein unkempt homolog, zinc fingers 1-6, GST-SBP tag (UNK, Homo sapiens, UniProt Q9C0B0, residues 30-357)
Sequence of UniProt Q9C0B0 (30-357, looked up): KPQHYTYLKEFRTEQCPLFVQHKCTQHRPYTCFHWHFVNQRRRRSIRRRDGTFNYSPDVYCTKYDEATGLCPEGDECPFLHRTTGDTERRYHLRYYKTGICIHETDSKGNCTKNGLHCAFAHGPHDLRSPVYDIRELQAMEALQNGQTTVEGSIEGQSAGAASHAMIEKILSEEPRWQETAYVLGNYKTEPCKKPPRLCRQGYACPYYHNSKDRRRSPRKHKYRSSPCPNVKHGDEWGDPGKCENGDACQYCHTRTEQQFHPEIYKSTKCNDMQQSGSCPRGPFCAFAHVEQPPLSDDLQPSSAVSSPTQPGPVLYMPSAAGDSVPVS
Technique: RNA Bind-n-Seq
Molecule type: RNA
Medium: in vitro
Concentration: not given
Setting: RNA with constant flanks, human-mouse chimeric sites, ends assumed
Baseline: input RNA pool
Reading: higher = stronger binding
| Strand | bound/input enrichment [ratio] |
| --- | --- |
| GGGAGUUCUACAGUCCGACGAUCCACGUGUCUGCAGUACUUGAUGUGGACUACUCUCCCACUGGGAAGGAGUUUGUGUCUGCCAGCUUUGAUAAGUCUAUUAGAAUCUUUCCUGUGGACAAGAGCCGAAGCAGGGAAGUGUAUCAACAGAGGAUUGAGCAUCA | 0.166 |
| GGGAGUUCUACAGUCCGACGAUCUGUGCAUAUGAUGCUUGAGAUGGUUUUUGCAGAUGCAGAAAUCGCUGCAAGGUCAUUACAAUAGAUAAAAGUGGUAUUUUAAACCUUUGAAAUAAAUGGAUGUAACUGUACCUUGGUACACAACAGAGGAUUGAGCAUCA | 0.386 |
| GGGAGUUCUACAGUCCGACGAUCAAUUUCCUGUCAUACUUUUUAGACAUUGCCAUAGGUAUUACAGAGCACCUGGCCACAUUCUAGGUUUGUGUUAUUUCUCAGCUAUGGAUAUGAUCAAAGAGUGAAAAUGCUUAACUAAUGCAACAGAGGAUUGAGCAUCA | 0.827 |
| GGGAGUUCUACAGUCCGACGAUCGAGCGUCUCGCUCGAACCGGGAUCAUAGUGACCACUAGUGAGGCUGUCCUCCUACAGCUGGUGGCUGACAAAGACCACCCGAAGUUCAAGGAAAUUCAGAACCUAAUUAAGGCGAGUGCCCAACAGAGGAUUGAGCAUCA | 0.172 |
| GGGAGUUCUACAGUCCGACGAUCAUGGAGAAGGAUUCUCUGCCCCGCUUUGUGCGCUCUGAGUUUUAUCAGGAGCUAAUCAAGUAGUCAUCUGGUCAGGCUAUGAAAUCAUGCCCUGUGAGUUGAGUUACAUCCUUUGUAGCACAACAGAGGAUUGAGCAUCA | 0.323 |
| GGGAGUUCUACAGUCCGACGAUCCGCUGGCGUUGAACUGUGGACUCUGAUGGCCUCCAUCUCUCAGGCACGUGUGCCUUCUCUUAGUCCCUGUUUUCGGGAUGUUAUGAAUCUCAGUACUGUGGUUUGAAAGCACCAGCUUUGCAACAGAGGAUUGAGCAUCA | 0.172 |
| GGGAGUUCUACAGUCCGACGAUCCGGAGCCCUCCUCUCCCACAGGCCCAAGAUAUAACCCACCAGUGCCUUUUGUCUUCCUGUCAGCUCUGUCAAUCACGGCCCUGCCUUCACGCCCACACUCCCCAGCCAAAGUGGGGAGGGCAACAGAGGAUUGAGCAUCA | 0.447 |
| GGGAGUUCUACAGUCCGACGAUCUGGGCACUCUAUCAGAUAUAUUAAUUUUUUAAUGUAGAUGUAAUUUUAAAAAUGAAUGGCUAGUUUACACGUUUAACUAGGGUUUUACUAUAUAUGUGUACAUAUGUAUAUAUAUAUAUACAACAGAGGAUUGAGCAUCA | 4.72 |
| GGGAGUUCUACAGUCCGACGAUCGAUAGGAAAAGCUUGUUGGAGACCCGCUUGCAUGUCACUGGUAGAGACCUGAGGUGUCAAAUAGCUGAAACUUUCGGAUUUCAAGAAAAUUACAUCAAGAUCGUAAUAAAUAAGAAGCAGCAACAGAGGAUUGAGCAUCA | 0.642 |
| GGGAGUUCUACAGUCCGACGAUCCAGGGCAUCAUCUCUCGUGCUGUUAGACACCUGUUCAAGAGUAUUGAUGAGAAAAAGACCUCAGCGAUUAAAAACGGGCUGCCCCCUCCAGAUUUUAAAGUGAAUGCCCAAUUCUUAGAGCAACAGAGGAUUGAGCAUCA | 0.605 |
| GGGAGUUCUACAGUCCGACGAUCACCUCCCCCUCCCGCCUCACCCCACCCCCGCUUUUUGGAAAGUUUUUGGCGUUUCUUUUUUUUAGAAAUACAAAGUGAUUACAGUUUCCCCCGCAAGGGUCUAUCGAUUCACCCUUCGGACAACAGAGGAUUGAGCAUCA | 1.32 |

Series 2
Target: CCNB3, cyclin fold, Cln2 fusion (human)
Technique: yeast growth competition, sequencing
Medium: yeast
Setting: weak parent motif
Baseline: not given
Reading: higher = stronger binding
Starting sequence: PKMYT1 docking peptide (human); SFEPRNLLSLFED; partner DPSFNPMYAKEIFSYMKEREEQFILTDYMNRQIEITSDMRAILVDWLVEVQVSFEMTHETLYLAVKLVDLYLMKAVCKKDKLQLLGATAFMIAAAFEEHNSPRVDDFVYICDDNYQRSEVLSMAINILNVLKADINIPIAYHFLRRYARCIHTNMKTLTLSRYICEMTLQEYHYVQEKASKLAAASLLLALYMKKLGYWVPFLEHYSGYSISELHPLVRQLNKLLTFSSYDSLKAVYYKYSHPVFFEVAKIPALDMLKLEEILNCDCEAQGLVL
| Change | normalised enrichment score |
| --- | --- |
| GFEPRNLLSLFED [S1G] | 0.347 |
| SFEPRNLLSLIED [F11I] | 0.307 |
| SGEPRNLLSLFED [F2G] | 0.432 |
| SFRPRNLLSLFED [E3R] | -0.405 |
| SFTPRNLLSLFED [E3T] | 0.475 |
| AFEPRNLLSLFED [S1A] | 0.126 |
| SFYPRNLLSLFED [E3Y] | 0.512 |
| SFEPRNLLWLFED [S9W] | 0.863 |
| SFEPRNLLLLFED [S9L] | 0.648 |
| SFEPGNLLSLFED [R5G] | 0.269 |
| SFEPRNDLSLFED [L7D] | 0.12 |
| SFEPRNLLSSFED [L10S] | 0.121 |
| SFEPRNLLSYFED [L10Y] | 0.41 |
| SFEVRNLLSLFED [P4V] | 0.483 |
| SFEARNLLSLFED [P4A] | 0.556 |
| SFEPRNLLSLFFD [E12F] | 0.511 |
| SFEPRNPLSLFED [L7P] | -0.0129 |
| SFEPKNLLSLFED [R5K] | 0.457 |
| SFEPRNLLKLFED [S9K] | 0.396 |
| SMEPRNLLSLFED [F2M] | 0.634 |

Series 3
Target: Interferon regulatory factor 5, full length, phosphomimetic (IRF5, Homo sapiens, UniProt Q13568-2, residues 1-514, K96S/S451D/S453D/S456D/S462D)
Technique: protein-binding microarray
Molecule type: double-stranded DNA, one strand shown
Medium: in vitro
Concentration: 250 nM
Setting: 60-bp whole probe
Together with: salmon DNA 0.4 mg/ml
Baseline: random background probes
Reading: higher = stronger binding
All sequences stand within: GCCTAGCAC … GTCTTGATTCGCTTGACGCTGCTG
| Strand | log fluorescence |
| --- | --- |
| TCACAGTTTAATATCTAACTGTGCTAG | 0.566 z-score |
| TCATTTTTCTAATTTACACTGTGCTAG | 1.12 z-score |
| TCACTTTTCACTTTACAACTGTGCTAG | 2.5 z-score |
| TTAGATTTCAGACTGGATTGGTGCTAG | 0.388 z-score |
| TTAGGTATCCTACTGCTTGAGTGCTAG | -0.0847 z-score |
| TTAGTTTTCGGGTATCGATTAGTGCTA | 8.5 z-score |
| TTAGATCTCAGTATCGAATAGTGCTAG | 2.02 z-score |
| GACGGTATCCTGCTCCTGACGTGCTAG | -0.14 z-score |
| TCAACTTTTATTTTCAGACTGTGCTAG | 1.24 z-score |
| CACGGTTTCGACTATCGGGACGTGCTA | 6.69 z-score |
| TTAGGTATCCTTCTCCTATAGTGCTAG | 0.467 z-score |
| TTAGATTCCCGTTTCGATTAGTGCTAG | 7.33 z-score |
| TTAGGTATCCTATTCCTTTAGTGCTAG | 0.268 z-score |
| TTAGGTAACGACACTGGGTTAGTGCTA | -0.0634 z-score |
| TCACTTCTTTTTTATTCTACTGTGCTA | 1.28 z-score |
| TTAGGTTTCGGGCCTGGGTTAGTGCTA | 5.29 z-score |
| TTAGGATTGGACTTTCGGTTAGTGCTA | 9.66 z-score |
| TCATCACTTTCTTTAACACTGTGCTAG | 2.79 z-score |
| TCAGATCTGCCGTCCCACTCAGTGCTA | -0.42 z-score |
| TTAGGTTTCGGTTTCGGATAGTGCTAG | 11.4 z-score |
| GACGGTCTCGGACTGGGGCCGTGCTAG | -0.605 z-score |

Series 4
Target: RNA binding protein fox-1 homolog 2, RRM domain, GST-SBP tag (RBFOX2, Homo sapiens, UniProt O43251-10, residues 100-194)
Technique: RNA Bind-n-Seq
Molecule type: RNA
Medium: in vitro
Concentration: 365 nM
Setting: natural RNA segment, single round, ends assumed
Baseline: no-protein control
Reading: higher = stronger binding
Construct (chain): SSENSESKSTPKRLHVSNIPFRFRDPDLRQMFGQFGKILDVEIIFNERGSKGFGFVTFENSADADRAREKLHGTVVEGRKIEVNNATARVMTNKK
| Strand | RBNS enrichment (R) |
| --- | --- |
| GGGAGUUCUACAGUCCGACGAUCCAGCCGGGAUGCUAGGCCUAAUUGUUCAGCGUGGAGAUGGCAACUCACGUGGUGCCCUAGGUGCAGCUGCGUGGUCUGGUAUACAUGCUGCAAAAUUCACCCAGUUCCCCUGGAAUUCUCGGGUGCCAA | 0.179 |
| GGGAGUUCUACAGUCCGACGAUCUUGCUUUUCAAUUUUGGAAAGGGAUCUCUGUCCAGGUCAGCCCCUCUUGAAGGGCUACCUUUUGUUUUAAUUGGUGGUGUACUUUUUUGUAUGUGGAAUUUGUCCCAUGUUGGAAUUCUCGGGUGCCAA | 0.376 |
| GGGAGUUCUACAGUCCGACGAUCUUAUAUGUGUGUUUAACAGGAUGAGAGCAUGGCGAGCUUGUAGCACACCAGAGGUUGUAGACCUAUAUCUGGUAUCCAGAACCUGACAGGGAAACAGUUCUUGGUCCCCCUGGAAUUCUCGGGUGCCAA | 1.06 |
| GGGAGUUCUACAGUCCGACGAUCCCUGGUCUGUCUCCUCAGGGCAGGGCCCAGCACACUGCCCGGCCAGUCCUCCUACCUCCCGAGUCUGCGGGCAGCUGCUGUCCCAGCAUCUGCUGGUCAUUUCGCCCUGAUGGAAUUCUCGGGUGCCAA | 0.339 |
| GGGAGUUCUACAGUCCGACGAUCAGGCUAGUUUGGUGCCUGCUCUGGGUCAUACACCUGAUCUGGAAGAACAAAGCUUAAGCUGCCUUUGUUAUUUUUUGAAAUUGAAAUAAAGUUUACUAAUUUUGACCAAAUGGAAUUCUCGGGUGCCAA | 0.49 |
| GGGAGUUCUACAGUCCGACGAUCGUCUCUGACAGACAAAUCUAAGGAGUUGCCGUUAUACUGUUCUGGGGGUUUGCGGUUUUUCUGGGACAACAAGUUUGACCAUGCAAUGGUAGCUUUUCUGGACUGUGUGCUGGAAUUCUCGGGUGCCAA | 0.972 |
| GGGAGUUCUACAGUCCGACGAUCAGAAGUCCCACAUGGAAGACGCUGUUCCAGGAUCUUUACCUUUCCAAAGGAUGCAUACAGGAUAUUUUGGAGCAUCAUCCUCGAAGAAAAGUCAGUUAAACCAUUUAGUUUGGAAUUCUCGGGUGCCAA | 0.709 |
| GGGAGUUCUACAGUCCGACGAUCAAUAAUUUGUGGACCAGGGAUUGCUUUUCUGAAGGCAGUAUAGGGAACAUGAAUAUUCAAGAUGAAAUACAAAAAUUAUGUUUAAGGGUCAUAGUGUAUAAGUAGCUUCCUGGAAUUCUCGGGUGCCAA | 0.43 |
| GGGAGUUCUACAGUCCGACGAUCUAAAACCAGUUUCAUAAUUGGUUGUAUAUGUAGACUUGGAGUUUUAUCUUUUUACUUGUUGCCAUGGAACUGAAACCAUUAGAGGUUUUUGUCUUGGCUUGGGGUUUUUGUGGAAUUCUCGGGUGCCAA | 0.458 |

Repeated from above (series 2):
| Change | normalised enrichment score |
| --- | --- |
| SGEPRNLLSLFED [F2G] | 0.432 |
| SFRPRNLLSLFED [E3R] | -0.405 |
| SFTPRNLLSLFED [E3T] | 0.475 |
| AFEPRNLLSLFED [S1A] | 0.126 |
